Measurements pooled from the literature.
Each line is one published result; not all experiments were run side by side.
Cell line: K562

SMILES	test	setting	IC50
CO[C@@H]1C(=O)c2ccc(O)cc2O[C@@H]1c1ccc(O)c(O)c1 (relative stereo)	cell growth or viability, MTT	72 h	47.7 µM
Cc1nc(Nc2ncc(C(=O)Nc3c(C)cccc3Cl)s2)cc(N2CCN(CCOC(=O)[C@@H](N)CS)CC2)n1	cell growth or viability, MTT	72 h	0.000658 µM
COc1ccc(C[C@H]2COC(=O)[C@@H]2Cc2ccc(OCCCCCCCCCC(=O)NO)c(OC)c2)cc1OC	cell growth or viability, CCK-8	48 h	> 5 µM
COc1ccc(/N=N/C(=S)N2CCOCC2)cc1	cell growth or viability, resazurin	48 h	> 50 µM
Cc1nc(Nc2ncc(C(=O)Nc3c(C)cccc3Cl)s2)cc(N2CCN(CCOC(=O)CCCCCCCCCCN)CC2)n1	cell growth or viability, MTT	72 h	< 5.12e-05 µM
NC(=S)c1ccc(O)cc1	cell growth or viability, CCK-8	72 h	> 200 µM
CCCCn1cc(C(=O)O)c(=O)c2cc(F)c(Nc3ccccc3OC)c(N)c21	cell growth or viability, SRB	72 h	3.47 µg/mL
O=C(/C=C/c1ccccc1)c1ccc(O)cc1	cell viability	–	16 µM
COc1cc(C2Oc3ccc(C=C4Oc5cc(O)ccc5C4=O)cc3OC2CO)cc(OC)c1O (centres unmarked)	cell growth or viability, MTT	72 h	19 µM
COc1ccc(-c2coc3c(CC=C(C)C)c(O)c(CC=C(C)C)c(O)c3c2=O)cc1O	cell growth or viability, MTT	–	29.4 µM
COc1ccc(C(=O)/C=C/c2ccccc2)cc1	cell viability	–	38 µM
COc1ccc(C[C@H]2COC(=O)[C@@H]2Cc2ccc(OCCCCCCCCC(=O)NO)c(OC)c2)cc1OC	cell growth or viability, CCK-8	48 h	3.03 µM
O=C(/C=C/c1ccc(O)cc1)c1ccccc1	cell viability	–	31 µM
C[C@H](CCC=O)[C@@H]1CC[C@]2(C)C3=C(CC[C@@]12C)[C@@]1(C)CC[C@H](O)C(C)(C)[C@@H]1CC3	cell growth or viability, SRB	–	18.8 µM
Cc1nc(Nc2ncc(C(=O)Nc3c(C)cccc3Cl)s2)cc(N2CCN(CCOC(=O)[C@@H](N)CCC(=O)O)CC2)n1	cell growth or viability, MTT	72 h	< 5.12e-05 µM
COc1ccc(C(C)(O)C(C)(C)C(=O)O)cc1 (centres unmarked)	cell growth or viability	72 h	> 200 µM
COc1ccc(/C=C/C(=O)c2ccc(OC)cc2)cc1	NF-κB activity, inhibitor, luciferase	TNF-stimulated	> 200 µM
CCCCn1cc(C(=O)O)c(=O)c2cc(F)c(Nc3ccc(OC)cc3)c(N)c21	cell growth or viability, SRB	72 h	1.4 µg/mL
Cc1cccc(C)c1Nc1nn(C)c2nc(Nc3ccc4c(c3)CN(CC3CCN(c5ccc6c(c5)C(=O)N(C5CCC(=O)NC5=O)C6=O)CC3)CC4)ncc12 (centres unmarked)	cell growth or viability, ATP luminescence	5 days	~0.0022 µM
COc1ccc(/N=N/C(=S)N2CCN(C)CC2)cc1	cell growth or viability, resazurin	48 h	11 µM
CCCCn1cc(C(=O)O)c(=O)c2cc(F)c(Nc3ccc(OC)cc3)c([N+](=O)[O-])c21	cell growth or viability, SRB	72 h	> 200 µg/mL
O=C(/C=C/c1ccc(O)c(O)c1)c1ccc(O)cc1O	cell viability	–	13 µM
COc1cc2c(cc1O)[C@]1(O)C(=O)c3c(O)cc4c(c3O[C@@H]1CO2)C=CC(C)(C)O4	cell growth or viability, MTT	–	25.8 µM
COc1cc(/C=C/C(=O)c2ccc(O)cc2O)ccc1O	NF-κB activity, inhibitor, luciferase	TNF-stimulated	38 µM
OC[C@H]1[C@@H](O)[C@@H](O)CN1Cc1ccc(Br)cc1	cell growth or viability, MTS	72 h	> 200 µM
O=C(CCc1ccc(O)cc1)c1c(O)cc(O)cc1O	cell viability	–	59 µM
O=C(NO)c1ccc(Cn2sc3ccccc3c2=O)cc1	cell growth or viability, ATP luminescence	72 h	13.1 µM
COc1ccc(/C=C/C(=O)c2ccccc2)cc1	NF-κB activity, inhibitor, luciferase	TNF-stimulated	29 µM
CC(C)=CCc1c(O)c(CC=C(C)C)c2occ(-c3ccc(O)c(O)c3)c(=O)c2c1O	cell growth or viability, MTT	–	> 100 µM

Excerpt of the above:
SMILES	test	setting	IC50
COc1ccc(C[C@H]2COC(=O)[C@@H]2Cc2ccc(OCCCCCCCCCC(=O)NO)c(OC)c2)cc1OC	cell growth or viability, CCK-8	48 h	> 5 µM
CCCCn1cc(C(=O)O)c(=O)c2cc(F)c(Nc3ccc(OC)cc3)c(N)c21	cell growth or viability, SRB	72 h	1.4 µg/mL
O=C(CCc1ccc(O)cc1)c1c(O)cc(O)cc1O	cell viability	–	59 µM
